Measured values collected from several papers.
Parts stem from different laboratories: compare values within a part only.

Block 1 — method: protein binding microarray; form: double-stranded DNA, one strand shown; sample: in vitro; concentration: not given; reference: not given; direction: higher = stronger binding; endpoint: E-score
Target: Histone acetyltransferase KAT6A, both winged helices, GST fusion (KAT6A, Homo sapiens, UniProt Q92794, residues 1-181)
Setting: 8-mer, flanks averaged, mean of 2 arrays, mostly near background
Target sequence (chain): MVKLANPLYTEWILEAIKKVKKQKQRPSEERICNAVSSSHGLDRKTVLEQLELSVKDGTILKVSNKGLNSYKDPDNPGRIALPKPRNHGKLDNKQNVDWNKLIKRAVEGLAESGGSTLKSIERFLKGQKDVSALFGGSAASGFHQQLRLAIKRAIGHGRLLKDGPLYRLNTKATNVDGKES
Strand = CGGTGGTC; result = 0.119
Strand = CAGGTACC; result = -0.0931
Strand = AGTAGTCG; result = 0.0645
Strand = CGCTTCCA; result = 0.086
Strand = GGGTCATA; result = -0.0414
Strand = AAGATATT; result = -0.237
Strand = AGAGGCAC; result = -0.1
Strand = GCTGTCAA; result = 0.0531
Strand = AAAAGCGT; result = 0.0788
Strand = AATATATG; result = 0.0273
Strand = ACTGCCAA; result = -0.0496
Strand = GACAAGCC; result = 0.0835
Strand = AGACCGTG; result = 0.217
Strand = CATGTCAA; result = -0.0762
Strand = AGGGCAGG; result = -0.107
Strand = GACGACTC; result = -0.0188
Strand = GAAAACCA; result = 0.0141
Strand = CACTCATG; result = -0.0607
Strand = CTATATAC; result = -0.0609
Strand = GCCTTAAA; result = 0.0508
Strand = CCATCCCA; result = -0.257

Block 2 — method: protein-binding microarray; form: double-stranded DNA, one strand shown; sample: in vitro; concentration: 250 nM; setting: 60-bp whole probe; together with: salmon DNA 0.4 mg/ml; reference: random background probes; direction: higher = stronger binding; endpoint: log fluorescence; shared flanks, not repeated: GCCTAGCAC … GTCTTGATTCGCTTGACGCTGCTG
Target: Interferon regulatory factor 7, full length, phosphomimetic (IRF7, Homo sapiens, UniProt Q92985, residues 1-503, S101K/S471D/S472D/S475D/S476D/S477D/S483D/S484D/S487D)
Sequence of UniProt Q92985 (whole entry, unmodified, looked up): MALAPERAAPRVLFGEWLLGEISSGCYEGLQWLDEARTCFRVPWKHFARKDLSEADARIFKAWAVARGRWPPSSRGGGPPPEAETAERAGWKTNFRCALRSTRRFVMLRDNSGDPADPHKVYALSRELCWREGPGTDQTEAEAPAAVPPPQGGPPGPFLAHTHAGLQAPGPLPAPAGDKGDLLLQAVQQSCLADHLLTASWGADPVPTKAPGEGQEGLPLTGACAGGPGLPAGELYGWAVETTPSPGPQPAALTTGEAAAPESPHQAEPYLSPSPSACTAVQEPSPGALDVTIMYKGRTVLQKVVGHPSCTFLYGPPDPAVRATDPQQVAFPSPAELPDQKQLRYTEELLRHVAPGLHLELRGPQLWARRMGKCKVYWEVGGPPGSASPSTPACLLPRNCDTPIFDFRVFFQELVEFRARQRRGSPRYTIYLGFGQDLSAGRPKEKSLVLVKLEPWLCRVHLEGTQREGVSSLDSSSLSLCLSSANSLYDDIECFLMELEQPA
Strand = TCTCTTTCCACTTGTCTTTTCGTGCTA; result = 2.81 z-score
Strand = TTAGATATCAGCTTCGATTAGTGCTAG; result = 0.169 z-score
Strand = GGCACCCAAGCTCTTGTTTGGTGCTAG; result = -0.957 z-score
Strand = TTAGGTTTCGGTCGCGGTTAGTGCTAG; result = 3.98 z-score
Strand = TCAACCATCCCTTATAAAACTGTGCTA; result = -0.0734 z-score
Strand = CTAATTCTCTTTTCACTTTCGTGCTAG; result = 3.35 z-score
Strand = GACGGACTGGGGGTTCGGGACGTGCTA; result = 0.162 z-score
Strand = TTCGGTCTCGGTCTCGGTTAGTGCTAG; result = 2.49 z-score
Strand = GCTAGTGTGCCATATTTATCTGTGCTA; result = -1.05 z-score
Strand = TCACTCTTCTGCTTCCTACTGTGCTAG; result = 0.712 z-score
Strand = AACGGTATCGGGTATCGGGACGTGCTA; result = 0.597 z-score
Strand = TCAGAAATCAGTATGTTACTGTGCTAG; result = -0.382 z-score
Strand = TCAGGTATCGGACTGGGTTAGTGCTAG; result = 0.31 z-score
Strand = TTAGGGATCCTACTGCTTTAGTGCTAG; result = -0.622 z-score
Strand = TTAGAACTGAGTTTCGAATAGTGCTAG; result = 3.26 z-score
Strand = TCACTTTTTTGTTCCACACTGTGCTAG; result = 1.24 z-score

Block 3 — method: RNA Bind-n-Seq; form: RNA; sample: in vitro; concentration: 200 nM; setting: whole 134-nt RNA, ends assumed; together with: 150 mM KCl; reference: input library; direction: higher = stronger binding; endpoint: log2 enrichment
Target: Ras GTPase-activating protein-binding protein 1, full length (G3BP1, Homo sapiens, UniProt Q13283)
Sequence of UniProt Q13283 (whole entry, looked up): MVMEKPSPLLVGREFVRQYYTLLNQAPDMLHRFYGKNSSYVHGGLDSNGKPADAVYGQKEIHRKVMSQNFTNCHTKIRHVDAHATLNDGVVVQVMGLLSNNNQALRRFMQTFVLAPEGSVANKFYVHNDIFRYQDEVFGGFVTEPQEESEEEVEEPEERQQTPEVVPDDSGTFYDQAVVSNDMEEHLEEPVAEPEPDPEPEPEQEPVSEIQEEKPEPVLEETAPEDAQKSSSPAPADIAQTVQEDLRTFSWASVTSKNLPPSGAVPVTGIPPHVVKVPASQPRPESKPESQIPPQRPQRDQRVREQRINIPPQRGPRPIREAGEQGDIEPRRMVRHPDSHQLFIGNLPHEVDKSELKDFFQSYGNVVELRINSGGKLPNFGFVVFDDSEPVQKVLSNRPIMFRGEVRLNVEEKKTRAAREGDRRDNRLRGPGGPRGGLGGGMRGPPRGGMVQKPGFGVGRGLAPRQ
Shared flanks, not repeated: GGGAGUUCUACAGUCCGACGAUC … UGGAAUUCUCGGGUGUCAAGG
Strand = CUCAAGUCCUGUGCUACACAUCGUAUGUACCGAAUCGGGUGGGAAAGGGAGGGAAAGUAUUAUGUUACGCCGUUCGGAUCUGCACUUCCA; result = 1.22
Strand = UCCUGUGCUACACAUCGUAUGUACCGAAUCGGGGUUUUUUGGUUUUUUGGGGUUUUUUGGAAAGUAUUAUGUUACGCCGUUCGGAUCUGC; result = -0.248
Strand = CAAGUCCUGUGCUACACAUCGUAUGUACCGAAUCGGAGGUUUUUGGAAAAAAAGGAAAGUAUUAUGUUACGCCGUUCGGAUCUGCACUUC; result = -1.05
Strand = CACAGACAACACGCACCCACACAGACACAGAGGGAAGGGGUUGGGAUGGGGACAGGGUGCACAGCAGGGCGGGGUGGGACCCCAGCCCCU; result = 1.76
Strand = CCUCAAGUCCUGUGCUACACAUCGUAUGUACCGAAUCGGGGCGGGGCGGCGGAAAGUAUUAUGUUACGCCGUUCGGAUCUGCACUUCCAG; result = -0.06
Strand = CAAGUCCUGUGCUACACAUCGUAUGUACCGAAUCGGGGAAAGGAAAGGGGAAAGGAAAGUAUUAUGUUACGCCGUUCGGAUCUGCACUUC; result = -0.309
Strand = UCAAGUCCUGUGCUACACAUCGUAUGUACCGAAUCGGUUUGGGUUUGGUUUGGGGAAAGUAUUAUGUUACGCCGUUCGGAUCUGCACUUC; result = -0.703
Strand = CUGUGCUACACAUCGUAUGUACCGAAUCGGGGUUUUUUUGGGUUUUUUUGGGGUUUUUUUGGAAAGUAUUAUGUUACGCCGUUCGGAUCU; result = -0.662
Strand = UCCUGUGCUACACAUCGUAUGUACCGAAUCGGAAAAAAAGGAAAAAAAGGUUUUUUUGGAAAGUAUUAUGUUACGCCGUUCGGAUCUGCA; result = -0.791
Strand = AAGUCCUGUGCUACACAUCGUAUGUACCGAAUCGGUUUUUUUGGAAAAAGGAAAGGAAAGUAUUAUGUUACGCCGUUCGGAUCUGCACUU; result = -1.33
Strand = AGUCCUGUGCUACACAUCGUAUGUACCGAAUCAAAUUUAAAUUUUUAAACCCCCAAAAAAGUAUUAUGUUACGCCGUUCGGAUCUGCACU; result = -0.388
Strand = CUCAAGUCCUGUGCUACACAUCGUAUGUACCGAAUCGGUGGAAAGGAAAAAGGAAAGUAUUAUGUUACGCCGUUCGGAUCUGCACUUCCA; result = -0.489
Strand = AAGUCCUGUGCUACACAUCGUAUGUACCGAAUCGGGAAAGGGAAAAAAAGGGAGGGAAAGUAUUAUGUUACGCCGUUCGGAUCUGCACUU; result = 0.219
Strand = GCAGGAAGUAAAAACAAAUGGAAAUGCUUCGGAUAGUGGCAGGGGUGGGGGUUACUAAGGAAAGGGUGGGAUGGGAGUGGGUAAAGAGUU; result = 0.901

Block 4 — method: aptamer microarray, sandwich; form: DNA with 2'F-ANA; sample: in vitro; concentration: 200 nM; together with: Cy3 exosite-II aptamer, 400 nM; direction: higher = stronger binding; endpoint: mean fluorescence intensity; strand: GGTTGGTGTGGTTGG
Target: Prothrombin, mature alpha-thrombin (F2, Homo sapiens, UniProt P00734)
Setting: whole 15-mer aptamer, many near background
Modification = 2'F-ANA at 1 4 5 6 8 9 11 13; result = 48 a.u.
Modification = 2'F-ANA at 1 2 3 4 5 7 9 12 13 15; result = 70.4 a.u.
Modification = 2'F-ANA at 4 5 6 8 9; result = 116 a.u.
Modification = 2'F-ANA at 2 3 4 5 7 8 9 10 11 13 15; result = 53.3 a.u.
Modification = 2'F-ANA at 1 2 3 5 11 12 13; result = 77.1 a.u.
Modification = 2'F-ANA at 1 6 7 8 9 10 13 15; result = 56.5 a.u.
Modification = 2'F-ANA at 3 5 6 7 9 10; result = 56.5 a.u.
Modification = 2'F-ANA at 2 5 7 9 11 12 13 14; result = 55.1 a.u.
Modification = 2'F-ANA at 1 2 7 8 9 14; result = 59.5 a.u.
Modification = 2'F-ANA at 2 5 6 8 9 11 12 13 14 15; result = 48.8 a.u.
Modification = 2'F-ANA at 2 4 5 11 12; result = 124 a.u.
Modification = 2'F-ANA at 1 3 5 6 8 9 14; result = 45.3 a.u.
Modification = 2'F-ANA at 1 2 6 11 12 13 14; result = 66.2 a.u.
Modification = 2'F-ANA at 2 5 6 7 11 13 14 15; result = 82.9 a.u.
Modification = 2'F-ANA at 5 6 7 9 10; result = 59.3 a.u.
Modification = 2'F-ANA at 4 10 11 13 14 15; result = 58.5 a.u.
Modification = 2'F-ANA at 2 3 4 6 11 14; result = 203 a.u.
Modification = 2'F-ANA at 5 9 10 12 14; result = 155 a.u.
Modification = 2'F-ANA at 3 4 5 7 8 10 11 12 13; result = 56.8 a.u.
Modification = 2'F-ANA at 2 3 7 8 11 14; result = 509 a.u.
Modification = 2'F-ANA at 1 3 7 9 10 11; result = 101 a.u.
Modification = 2'F-ANA at 1 4 5 7 11 12; result = 88.9 a.u.
Modification = 2'F-ANA at 1 2 5 6 8 10 13 15; result = 50.3 a.u.
Modification = 2'F-ANA at 2 3 7 8 9 10 11 15; result = 348 a.u.
Modification = 2'F-ANA at 1 2 5 8 11 15; result = 55.7 a.u.

Block 5 — method: competition protein-binding microarray; form: double-stranded DNA, one strand shown; sample: in vitro; concentration: 2 µM; together with: Pho4 competitor, 0.05 µM; direction: higher = stronger binding; endpoint: fluorescence intensity; shared flanks, not repeated: … GTCTTGATTCGCTTGACGCTGCTG
Target: Centromere-binding protein 1, full length, His-tagged (CBF1, Saccharomyces cerevisiae, UniProt P17106, residues 1-351)
Sequence of UniProt P17106 (whole entry, looked up): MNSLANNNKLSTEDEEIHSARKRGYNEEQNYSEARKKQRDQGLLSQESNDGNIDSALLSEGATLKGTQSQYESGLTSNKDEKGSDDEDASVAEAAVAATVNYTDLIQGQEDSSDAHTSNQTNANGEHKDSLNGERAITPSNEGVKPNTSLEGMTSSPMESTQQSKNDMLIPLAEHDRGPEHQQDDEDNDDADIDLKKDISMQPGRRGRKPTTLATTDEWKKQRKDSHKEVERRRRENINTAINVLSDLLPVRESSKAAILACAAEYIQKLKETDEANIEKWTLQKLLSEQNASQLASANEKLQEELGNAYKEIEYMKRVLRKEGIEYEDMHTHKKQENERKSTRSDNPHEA
Setting: whole 60-bp probe, lowest competitor level
Strand = TAATTTGCTGTCCATCACGTGATGGATAATTTTTTT; result = 13900 a.u.
Strand = TAAGTTCCAGCTCTTCACGTGCTTTTGCTTCTCTCA; result = 978 a.u.
Strand = GAGTGGGCTGGCGGCAGCATGCAGAGCGTTATCGCT; result = 51.2 a.u.
Strand = CACAGCGAAGTATGGCTCGTGACTCGCAAAATCATC; result = 854 a.u.
Strand = CTTGCGTTAGCTATTTTCGTGCGATTTGTTTGTTCC; result = 93.3 a.u.
Strand = CTTCTGTAAATTTGCGTTGTGGGTGGACGCGCCCCG; result = 88.1 a.u.
Strand = CTTCTGTAAATTTGTCACTGGACTTGACGCGCCCCG; result = 97.7 a.u.
Strand = CATACCCAACCTTGGTGTGTGGGTGAAGATATTTGT; result = 73 a.u.
Strand = CTTCTCGCGGTGGTGCCCGTGGTGATTCCAGAGGCG; result = 67.9 a.u.
Strand = TGTCTTTCACCTTGTCACGGGCGCTTAGCTCCAATT; result = 165 a.u.
Strand = CATACCCAACCTTGTCACTGCACTTAAGATATTTGT; result = 94.5 a.u.
Strand = AAAGCGGTAATTTGGCGAGTGGGTGCAGATATCTAT; result = 74.9 a.u.
Strand = TGCGCAACAACTTGGATCGTGGGTGTATGTCTAGAA; result = 78.7 a.u.
Strand = GATCAAAAAAATACTCACGTGTCCTGGAGTCATAAA; result = 2350 a.u.
Strand = GTAATACATTTTCATCACATGAGAGTGTTCATTCAA; result = 367 a.u.
Strand = AAATTACTAAGTTGTCACGAGACTTACCCCGTATGA; result = 1490 a.u.
Strand = AAAGCGGTAATTTGCAATGTGGGTGCAGATATCTAT; result = 77.5 a.u.
Strand = TTGAAGGTGAAGCCTTCCGTGCAAAATGCGAAAAAA; result = 67.5 a.u.
Strand = GAAGTCGCCAGGGTGCGCGGGCACTCAGGGTAAGAG; result = 51.1 a.u.

A few entries again (block 4):
Modification = 2'F-ANA at 2 4 5 11 12; result = 124 a.u.
Modification = 2'F-ANA at 1 3 5 6 8 9 14; result = 45.3 a.u.
Modification = 2'F-ANA at 1 2 6 11 12 13 14; result = 66.2 a.u.
Modification = 2'F-ANA at 2 5 6 7 11 13 14 15; result = 82.9 a.u.
Modification = 2'F-ANA at 5 6 7 9 10; result = 59.3 a.u.
Modification = 2'F-ANA at 4 10 11 13 14 15; result = 58.5 a.u.
Modification = 2'F-ANA at 2 3 4 6 11 14; result = 203 a.u.
Modification = 2'F-ANA at 5 9 10 12 14; result = 155 a.u.
Modification = 2'F-ANA at 3 4 5 7 8 10 11 12 13; result = 56.8 a.u.
Modification = 2'F-ANA at 2 3 7 8 11 14; result = 509 a.u.
Modification = 2'F-ANA at 1 3 7 9 10 11; result = 101 a.u.
Modification = 2'F-ANA at 1 4 5 7 11 12; result = 88.9 a.u.
Modification = 2'F-ANA at 1 2 5 6 8 10 13 15; result = 50.3 a.u.
